Published values pooled from the literature.
Every numbered part comes from another study and shows a few of its results, in no order. ± gives the spread as reported.
UniProt P50613, sequence (whole entry, looked up): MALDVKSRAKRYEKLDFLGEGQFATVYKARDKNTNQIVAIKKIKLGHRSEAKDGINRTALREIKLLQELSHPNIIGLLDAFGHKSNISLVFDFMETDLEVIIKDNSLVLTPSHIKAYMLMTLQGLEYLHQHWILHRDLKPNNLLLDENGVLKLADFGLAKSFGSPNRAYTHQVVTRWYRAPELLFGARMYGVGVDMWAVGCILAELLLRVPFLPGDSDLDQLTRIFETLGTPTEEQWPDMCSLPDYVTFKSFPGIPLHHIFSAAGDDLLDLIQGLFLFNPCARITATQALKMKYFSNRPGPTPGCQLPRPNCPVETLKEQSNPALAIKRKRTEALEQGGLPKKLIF
UniProt Q13705, sequence (whole entry, looked up): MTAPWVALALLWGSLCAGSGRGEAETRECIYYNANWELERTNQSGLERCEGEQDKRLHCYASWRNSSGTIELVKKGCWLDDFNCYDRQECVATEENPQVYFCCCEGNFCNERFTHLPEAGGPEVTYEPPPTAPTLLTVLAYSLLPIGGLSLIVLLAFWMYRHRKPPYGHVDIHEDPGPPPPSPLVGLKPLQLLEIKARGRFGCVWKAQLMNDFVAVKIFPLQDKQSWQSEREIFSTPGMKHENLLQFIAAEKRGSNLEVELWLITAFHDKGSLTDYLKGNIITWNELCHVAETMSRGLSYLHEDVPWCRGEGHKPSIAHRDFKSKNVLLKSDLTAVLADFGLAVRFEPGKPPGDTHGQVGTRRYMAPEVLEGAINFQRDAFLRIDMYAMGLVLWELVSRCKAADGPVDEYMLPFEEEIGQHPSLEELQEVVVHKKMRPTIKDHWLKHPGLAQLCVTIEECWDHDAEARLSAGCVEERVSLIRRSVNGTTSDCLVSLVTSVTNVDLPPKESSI
UniProt Q8IVH8, sequence (whole entry, looked up): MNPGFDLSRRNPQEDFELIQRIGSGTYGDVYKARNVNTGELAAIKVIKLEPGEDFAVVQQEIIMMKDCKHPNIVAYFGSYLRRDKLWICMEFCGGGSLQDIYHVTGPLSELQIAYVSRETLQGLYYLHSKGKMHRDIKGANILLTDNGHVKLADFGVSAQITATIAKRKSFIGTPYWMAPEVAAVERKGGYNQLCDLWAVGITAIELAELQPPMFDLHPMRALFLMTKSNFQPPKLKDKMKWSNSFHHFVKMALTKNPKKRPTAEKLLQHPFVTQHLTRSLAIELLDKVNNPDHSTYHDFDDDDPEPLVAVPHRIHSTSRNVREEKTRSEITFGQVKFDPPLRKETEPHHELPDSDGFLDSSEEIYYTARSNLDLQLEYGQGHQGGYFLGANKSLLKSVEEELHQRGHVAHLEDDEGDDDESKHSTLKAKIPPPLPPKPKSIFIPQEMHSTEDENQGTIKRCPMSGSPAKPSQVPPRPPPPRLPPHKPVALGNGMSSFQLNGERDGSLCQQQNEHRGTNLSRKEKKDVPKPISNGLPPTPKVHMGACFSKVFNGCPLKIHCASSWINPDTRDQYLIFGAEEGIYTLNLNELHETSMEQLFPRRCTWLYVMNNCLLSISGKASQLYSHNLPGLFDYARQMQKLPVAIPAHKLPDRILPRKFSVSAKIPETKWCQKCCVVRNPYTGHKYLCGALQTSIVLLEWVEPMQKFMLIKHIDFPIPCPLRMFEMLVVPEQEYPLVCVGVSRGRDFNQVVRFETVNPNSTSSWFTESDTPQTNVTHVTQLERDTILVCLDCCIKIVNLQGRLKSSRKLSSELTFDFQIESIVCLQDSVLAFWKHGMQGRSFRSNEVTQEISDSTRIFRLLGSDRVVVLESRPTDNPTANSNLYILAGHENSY
UniProt O75582, sequence (whole entry, looked up): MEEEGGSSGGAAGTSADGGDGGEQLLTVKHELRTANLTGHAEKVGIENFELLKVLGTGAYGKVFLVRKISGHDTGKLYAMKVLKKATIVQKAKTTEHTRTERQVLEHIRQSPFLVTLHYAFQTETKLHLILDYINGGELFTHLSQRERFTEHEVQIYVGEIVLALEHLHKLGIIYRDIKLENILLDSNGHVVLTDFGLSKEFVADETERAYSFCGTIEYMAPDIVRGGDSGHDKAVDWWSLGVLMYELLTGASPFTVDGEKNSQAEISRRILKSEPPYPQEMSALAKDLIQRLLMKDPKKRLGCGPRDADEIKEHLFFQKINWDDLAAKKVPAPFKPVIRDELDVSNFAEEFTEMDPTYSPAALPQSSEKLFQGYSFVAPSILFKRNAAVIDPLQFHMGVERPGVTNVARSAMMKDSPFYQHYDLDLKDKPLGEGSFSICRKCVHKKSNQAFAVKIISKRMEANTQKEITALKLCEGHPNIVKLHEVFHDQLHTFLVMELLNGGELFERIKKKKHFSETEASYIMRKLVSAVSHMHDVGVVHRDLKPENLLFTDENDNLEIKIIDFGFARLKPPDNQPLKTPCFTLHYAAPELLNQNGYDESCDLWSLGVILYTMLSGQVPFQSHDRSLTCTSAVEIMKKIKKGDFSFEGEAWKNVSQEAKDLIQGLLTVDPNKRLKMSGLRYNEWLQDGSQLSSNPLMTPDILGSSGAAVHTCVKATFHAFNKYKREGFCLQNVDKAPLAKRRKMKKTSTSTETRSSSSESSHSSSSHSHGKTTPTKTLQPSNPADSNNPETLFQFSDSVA
UniProt P11802, sequence (whole entry, looked up): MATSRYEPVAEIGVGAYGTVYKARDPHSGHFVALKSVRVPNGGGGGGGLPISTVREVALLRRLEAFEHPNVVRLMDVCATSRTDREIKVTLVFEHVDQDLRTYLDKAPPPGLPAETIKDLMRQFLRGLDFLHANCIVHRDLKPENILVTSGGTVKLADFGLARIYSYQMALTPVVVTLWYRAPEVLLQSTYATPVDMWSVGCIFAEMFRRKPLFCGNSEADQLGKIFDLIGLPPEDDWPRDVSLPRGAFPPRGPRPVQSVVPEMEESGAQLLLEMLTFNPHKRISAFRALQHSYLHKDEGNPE

Block 1 — SMILES: C=CCc1ccc(O)c(-c2ccc(O)c(CC=C)c2)c1; effect on: chloride current; method: whole-cell voltage clamp; measurement: IC50
ANO1 del476-501: Anoctamin-1 (ANO1, Homo sapiens, UniProt Q5XXA6, del476-501)
UniProt Q5XXA6, sequence (whole entry, unmodified, looked up): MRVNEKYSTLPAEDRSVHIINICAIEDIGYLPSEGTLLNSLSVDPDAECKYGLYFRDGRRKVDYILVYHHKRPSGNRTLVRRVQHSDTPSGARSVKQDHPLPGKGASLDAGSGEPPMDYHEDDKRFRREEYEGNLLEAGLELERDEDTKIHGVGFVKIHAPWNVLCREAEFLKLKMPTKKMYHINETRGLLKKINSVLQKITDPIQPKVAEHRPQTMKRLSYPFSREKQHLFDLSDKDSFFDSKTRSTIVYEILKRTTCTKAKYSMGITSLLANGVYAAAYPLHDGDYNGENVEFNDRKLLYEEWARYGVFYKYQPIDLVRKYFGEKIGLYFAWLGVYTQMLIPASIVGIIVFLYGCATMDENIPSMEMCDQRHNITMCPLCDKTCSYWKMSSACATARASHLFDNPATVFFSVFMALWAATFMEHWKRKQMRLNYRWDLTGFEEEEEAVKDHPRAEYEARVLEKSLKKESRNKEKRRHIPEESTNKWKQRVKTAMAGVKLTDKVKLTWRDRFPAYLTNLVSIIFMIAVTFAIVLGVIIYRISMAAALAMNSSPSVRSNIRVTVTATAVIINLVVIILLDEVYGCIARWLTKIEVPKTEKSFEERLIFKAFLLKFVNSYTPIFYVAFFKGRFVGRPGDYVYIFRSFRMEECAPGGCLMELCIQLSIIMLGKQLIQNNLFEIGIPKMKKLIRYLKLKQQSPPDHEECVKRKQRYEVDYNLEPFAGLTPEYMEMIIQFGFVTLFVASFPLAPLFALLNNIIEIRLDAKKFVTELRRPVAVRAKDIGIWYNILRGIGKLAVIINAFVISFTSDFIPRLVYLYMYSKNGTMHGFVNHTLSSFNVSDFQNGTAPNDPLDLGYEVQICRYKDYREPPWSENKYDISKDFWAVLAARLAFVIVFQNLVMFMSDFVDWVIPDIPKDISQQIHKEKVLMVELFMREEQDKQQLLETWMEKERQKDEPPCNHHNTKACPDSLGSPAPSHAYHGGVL
Anoctamin-1 (ANO1, Homo sapiens, UniProt Q5XXA6, del476-501/M544A); membrane voltage -60 mV: 3.71 µM
Anoctamin-1 (ANO1, Homo sapiens, UniProt Q5XXA6, del476-501/F807I); inhibitor; F781I mutant at -20 mV: 6.91 µM
Anoctamin-1 (ANO1, Homo sapiens, UniProt Q5XXA6, del476-501/R631D); inhibitor; R605D mutant at 60 mV: 23.8 µM
ANO1 del476-501; membrane voltage -40 mV, together with: 300 nM Ca2+: 2.8 µM
ANO1 del476-501; membrane voltage -20 mV, together with: 300 nM Ca2+: 2.88 µM
Anoctamin-1 (ANO1, Homo sapiens, UniProt Q5XXA6, del476-501/F803A); membrane voltage -40 mV: 14 µM
Anoctamin-1 (ANO1, Homo sapiens, UniProt Q5XXA6, del476-501/F646A); membrane voltage -40 mV: 5.07 µM

Block 2 — effect on: kinase activity; measurement: remaining activity
Compound: COc1cc(C(=O)N2CCC(N3CCN(C)CC3)CC2)ccc1Nc1ncc2c(n1)N(C)c1ccccc1C(=O)N2C
DAPK1; 1 µM: 85 ± 1%
PAK2; 1 µM: 97 ± 1%
VEG-FR; 10 µM: 61 ± 3%
JAK2; 1 µM: 74 ± 6%
PKCz; 10 µM: 104%
ERK2; 10 µM: 85 ± 1%
HIPK1; 1 µM: 94 ± 4%
EPH-B2; 1 µM: 96 ± 7%
p38g MAPK; 1 µM: 90 ± 3%
PKBb; 1 µM: 93 ± 3%

Block 3 — method: competition with immobilised ligand; concentration: 1 µM; measurement: remaining binding
Compound: O=C(Nc1ccc(Oc2ccc(F)cc2)cc1)N1CCc2ncccc2[C@H]1c1ccc(F)cc1
CDC42BPA (Homo sapiens, UniProt Q5VT25); cell-free assay: 94%
FES (Homo sapiens, UniProt P07332); cell-free assay: 100%
PAK5 (Homo sapiens, UniProt Q9P286); cell-free assay: 100%
FLT4 (Homo sapiens, UniProt P35916); cell-free assay: 96%
TEC (Homo sapiens, UniProt P42680); binding: 86%
STK17B (Homo sapiens, UniProt O94768); cell-free assay: 89%
MAP4K3 (Homo sapiens, UniProt Q8IVH8); cell-free assay: 90%
DAPK1 (Homo sapiens, UniProt P53355); cell-free assay: 87%
FLT3 (Homo sapiens, UniProt P36888, N841I); cell-free assay: 93%
CDK7 (Homo sapiens, UniProt P50613); cell-free assay: 77%
STK35 (Homo sapiens, UniProt Q8TDR2); cell-free assay: 80%
Tyrosine-protein kinase JAK1, JH2 (JAK1, Homo sapiens, UniProt P23458); cell-free assay: 100%
CDK5 (Homo sapiens, UniProt Q00535); cell-free assay: 100%
CHEK1 (Homo sapiens, UniProt O14757); cell-free assay: 100%
Ribosomal protein S6 kinase alpha-5, C-terminal kinase domain (RPS6KA5, Homo sapiens, UniProt O75582); cell-free assay: 74%
PTK6 (Homo sapiens, UniProt Q13882); cell-free assay: 100%
BMPR1A (Homo sapiens, UniProt P36894); binding: 100%
FLT3 (Homo sapiens, UniProt P36888, R834Q); cell-free assay: 97%
PI4KB (Homo sapiens, UniProt Q9UBF8); cell-free assay: 75%
ACVR2B (Homo sapiens, UniProt Q13705); cell-free assay: 100%
TEK (Homo sapiens, UniProt Q02763); cell-free assay: 100%
EPHB6 (Homo sapiens, UniProt O15197); cell-free assay: 70%
CDK11B (Homo sapiens, UniProt P21127); cell-free assay: 89%
CDK4 (Homo sapiens, UniProt P11802); cell-free assay: 96%
RET (Homo sapiens, UniProt P07949, V804M); cell-free assay: 94%

Block 4 — action: antagonist; measurement: IC50
Target: Beta-1 adrenergic receptor (ADRB1, Homo sapiens, UniProt P08588)
UniProt P08588, sequence (whole entry, looked up): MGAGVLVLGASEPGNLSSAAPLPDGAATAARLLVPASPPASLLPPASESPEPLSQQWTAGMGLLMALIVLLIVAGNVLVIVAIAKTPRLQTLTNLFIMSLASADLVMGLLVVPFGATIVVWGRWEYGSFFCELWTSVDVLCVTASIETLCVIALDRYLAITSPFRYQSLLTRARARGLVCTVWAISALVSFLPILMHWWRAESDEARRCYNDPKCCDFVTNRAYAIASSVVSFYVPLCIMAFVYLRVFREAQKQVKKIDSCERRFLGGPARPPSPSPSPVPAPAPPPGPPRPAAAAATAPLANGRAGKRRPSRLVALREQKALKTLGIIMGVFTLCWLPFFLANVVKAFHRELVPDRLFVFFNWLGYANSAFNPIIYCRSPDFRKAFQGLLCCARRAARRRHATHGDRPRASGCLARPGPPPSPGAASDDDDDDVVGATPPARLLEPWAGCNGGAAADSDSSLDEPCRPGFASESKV
CC[C@@H]1OC(OC(c2c[nH]cn2)C(NC(=O)c2nc(C(CC(N)=O)NCC(N)C(N)=O)nc(N)c2C)C(=O)NC(C)C(O)C(C)C(=O)NC(C(=O)NCCc2nc(-c3nc(C(=O)NCCCCNC(=N)N)cs3)cs2)C(C)O)[C@@H](O[C@H]2O[C@H](CO)[C@@H](O)[C@H](OC(N)=O)[C@@H]2O)[C@@H](C)[C@@H]1C (stereo partly shown): 10 µM
COc1ccccc1N1CCC(CNC(=O)c2ccc(C)s2)C1 (stereo not shown): ≥ 100 µM
CCC(=O)NCCCCC(NC(=O)OCc1ccccc1)C(=O)Nc1ccc2c(C)cc(=O)oc2c1 (stereo not shown): ≥ 100 µM
Cc1ccn(-c2ccc(NCC(O)C3CCCCC3)nn2)n1 (stereo not shown): ≥ 100 µM
O=C(Nc1ccc([C@@H](O)[C@H]2COCC(=O)N2CCCc2ccccc2)cc1)c1cnccn1: ≥ 100 µM
CN1CCC2(CC1)CCN(Cc1ccc(OCC(O)CN3CCCCC3)cc1)C2 (stereo not shown): ≥ 100 µM
Cc1ccc(C(=O)Nc2cccc(C(F)(F)F)c2)cc1-c1ccc2nc(NCCN3CCOCC3)ncc2c1: ≥ 100 µM
O=C1c2cnc(-c3ccsc3)nc2OCCN1c1cccc(C(F)(F)F)c1: ≥ 100 µM

Block 5 — effect on: enzyme activity; action: inhibitor; concentration: 10 µM; measurement: inhibition
Target: Calcium/calmodulin-dependent protein kinase type II subunit alpha (CAMK2A, Homo sapiens, UniProt Q9UQM7)
UniProt Q9UQM7, sequence (whole entry, looked up): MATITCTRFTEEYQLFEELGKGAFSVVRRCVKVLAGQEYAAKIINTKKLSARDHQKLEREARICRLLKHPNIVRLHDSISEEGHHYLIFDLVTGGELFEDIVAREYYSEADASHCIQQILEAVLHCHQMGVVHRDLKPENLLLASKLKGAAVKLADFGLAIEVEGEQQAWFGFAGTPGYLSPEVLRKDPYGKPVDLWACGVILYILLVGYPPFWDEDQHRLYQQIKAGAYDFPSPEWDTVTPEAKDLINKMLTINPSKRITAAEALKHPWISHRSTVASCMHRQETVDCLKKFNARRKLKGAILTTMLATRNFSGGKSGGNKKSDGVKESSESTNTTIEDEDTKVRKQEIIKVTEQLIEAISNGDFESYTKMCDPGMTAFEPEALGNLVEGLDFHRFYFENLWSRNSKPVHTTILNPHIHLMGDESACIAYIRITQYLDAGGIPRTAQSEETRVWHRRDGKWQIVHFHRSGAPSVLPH
CC(=O)N[C@@H]1[C@@H](O)[C@H](O)[C@@H](CO)O[C@@H]1O: 25%
O=c1cc(-c2ccccc2)oc2ccccc12: -3%
CCC(=O)OCC(=O)[C@@]1(OC(=O)CC)[C@@H](C)C[C@H]2[C@@H]3CCC4=CC(=O)C=C[C@]4(C)[C@@]3(F)[C@@H](O)C[C@@]21C: 1%
O=C(O)CC(O)(CC(=O)OCc1ccc(O[C@@H]2O[C@H](CO)[C@@H](O)[C@H](O)[C@H]2O)cc1)C(=O)O (stereo partly shown): 15%
Nc1nc(Cl)nc2c1ncn2[C@@H]1O[C@H](CO)[C@@H](O)[C@@H]1F: -2%

Some of these lines once more (block 1):
Anoctamin-1 (ANO1, Homo sapiens, UniProt Q5XXA6, del476-501/M544A); membrane voltage -60 mV: 3.71 µM
ANO1 del476-501; membrane voltage -40 mV, together with: 300 nM Ca2+: 2.8 µM
Anoctamin-1 (ANO1, Homo sapiens, UniProt Q5XXA6, del476-501/R631D); inhibitor; R605D mutant at 60 mV: 23.8 µM
Anoctamin-1 (ANO1, Homo sapiens, UniProt Q5XXA6, del476-501/F803A); membrane voltage -40 mV: 14 µM
Anoctamin-1 (ANO1, Homo sapiens, UniProt Q5XXA6, del476-501/F807I); inhibitor; F781I mutant at -20 mV: 6.91 µM
